Published values pooled from the literature.
A part holds a random share of what one study measured. Substitutions count along the parent as printed.

Block 1
Target: CEBPD, bZIP domain (human)
Method: DHFR protein complementation
Matrix: yeast
Setting: single substitutions, most at no-binding floor
Baseline: wild-type JUN-FOS pair
Direction: higher = stronger binding
Parent: JUN, bZIP domain (human); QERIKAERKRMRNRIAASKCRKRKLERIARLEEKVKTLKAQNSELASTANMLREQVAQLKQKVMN; partner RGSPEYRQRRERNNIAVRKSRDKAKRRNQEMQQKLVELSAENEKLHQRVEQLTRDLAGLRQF
`S43H` has a binding fitness of -1.33 natural log.
With `I28V` the binding fitness was -1.35 natural log.
`E32N` has a binding fitness of -1.33 natural log.
The binding fitness of `S43D` is reported as -1.19 natural log.
The binding fitness of `S43K` is reported as -1.32 natural log.
For `V56T`, the binding fitness was -1.47 natural log.
`V35Q` has a binding fitness of -1.4 natural log.
With `E32G` the binding fitness was -1.43 natural log.
`A46E` gave a binding fitness of -1.1 natural log.
With `V56S` the binding fitness was -1.5 natural log.
`N42I` gave a binding fitness of -1.41 natural log.
`V35W` gave a binding fitness of -1.35 natural log.
`L31D` has a binding fitness of -1.45 natural log.
For `R30M`, the binding fitness was -1.4 natural log.
The binding fitness of `R53L` is reported as -1.46 natural log.
The binding fitness of `S47V` is reported as -1.32 natural log.
`A46R` gave a binding fitness of -1.31 natural log.
`R30P` has a binding fitness of -1.4 natural log.
For `S47L`, the binding fitness was -1.36 natural log.
For `A57L`, the binding fitness was -1.35 natural log.
With `S43W` the binding fitness was -1.5 natural log.
`A57G` has a binding fitness of -1.34 natural log.
`S43Q` has a binding fitness of -1.28 natural log.
`V35K` gave a binding fitness of -1.45 natural log.
For `A29D`, the binding fitness was -1.34 natural log.

Block 2
Target: ABI1, truncated, D143A, DHFR fusion (Arabidopsis thaliana, UniProt P49597)
Method: DHFR PCA, dose-response
Matrix: yeast
Setting: Hill fit, not affinity
Together with: (+)-ABA, dose series
Direction: lower = more sensitive
Parent: PYL1, truncated, DHFR fusion (Arabidopsis thaliana, UniProt Q8VZS8); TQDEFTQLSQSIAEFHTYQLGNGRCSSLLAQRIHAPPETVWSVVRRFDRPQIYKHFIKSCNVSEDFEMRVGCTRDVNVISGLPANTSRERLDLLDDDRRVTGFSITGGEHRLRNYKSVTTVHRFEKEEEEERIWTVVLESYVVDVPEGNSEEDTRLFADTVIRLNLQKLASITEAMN
The ABA EC50 of `S9Q` is reported as 7.2 µM.
`N22E` has an ABA EC50 of 3.71 µM.
`E131P` has an ABA EC50 of 3.24 µM.
With `D159W` the ABA EC50 was 1400 µM.
For `N61K`, the ABA EC50 was 3.2 µM.
For `Q2I`, the ABA EC50 was 30 µM.
`F124M` has an ABA EC50 of 1.7 µM.

Block 3
Target: CCNA1, cyclin fold, Cln2 fusion (human)
Method: yeast growth competition, sequencing
Matrix: yeast
Setting: weak parent motif
Baseline: not given
Direction: higher = stronger binding
Parent: LLGL2 docking peptide (human); KSLKKSLRQSFRR
`R8A`: “normalised enrichment score” -0.457.
`L7A`: “normalised enrichment score” 0.429.
Under “normalised enrichment score”, `R12A` is recorded as 0.295.
Under “normalised enrichment score”, `K1A` is recorded as -0.145.
`F11A`: “normalised enrichment score” 0.601.
`L3A`: “normalised enrichment score” 0.5.
For `R13A`, “normalised enrichment score” read 0.445.

Block 4
Target: Sal-like protein 4, full length isoform B (SALL4, Homo sapiens, UniProt Q9UJQ4-2, residues 1-616)
Method: universal PBM
Form: double-stranded DNA, one strand shown
Matrix: in vitro
Concentration: not given
Setting: 8-mer, flanks averaged, mean of replicates
Direction: higher = stronger binding
`GGCGGTAC` has an E-score of -0.166.
With `AGGGCGCA` the E-score was -0.325.
`CTACCCCC` has an E-score of -0.0745.
The E-score of `CGCCCATA` is reported as -0.0723.
With `CAAAGACC` the E-score was 0.0116.
With `AGACGCAA` the E-score was -0.00291.
For `CAACGTAC`, the E-score was 0.0579.
`GACAGTGA` has an E-score of -0.122.
The E-score of `TAAAATTA` is reported as 0.347.
`CCAGGTCG` gave an E-score of -0.295.
The E-score of `AGGCCCTC` is reported as -0.302.
`GAAGTGTA` has an E-score of 0.0124.
`CTTTCCGA` gave an E-score of -0.0564.
`ACGCTTAA` gave an E-score of 0.114.
The E-score of `GCACTCCC` is reported as -0.208.
`AACATTGT` gave an E-score of 0.269.
With `AAAAAGAT` the E-score was 0.219.
`CCTATGCG` has an E-score of -0.0646.
With `AAAGCAAG` the E-score was 0.0467.

Block 5
Target: RNA binding protein fox-1 homolog 2, RRM domain, GST-SBP tag (RBFOX2, Homo sapiens, UniProt O43251-10, residues 100-194)
Method: RNA Bind-n-Seq
Form: RNA
Matrix: in vitro
Concentration: 365 nM
Setting: natural RNA segment, single round, ends assumed
Baseline: no-protein control
Direction: higher = stronger binding
Constant ends, left off below: GGGAGUUCUACAGUCCGACGAUC … UGGAAUUCUCGGGUGCCAA
Construct (chain): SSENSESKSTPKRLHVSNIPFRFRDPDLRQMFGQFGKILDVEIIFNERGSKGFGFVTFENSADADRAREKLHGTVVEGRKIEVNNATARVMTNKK
For `CCUGAGAGGUUCCUUUGUGUGGUGGGGCCUGAAGAAGAAAGCCCCACGGCUGGACAGCUGUUCUCUCCUCCUAUCCCACCGCUUCCCCUAAUAAAGGGACUGUUCUUUUG`, “RBNS enrichment (R)” read 0.325.
For `CCAACAGUGUAAAUGCAUAGCAGUGUUUAUCUGCAUGAGAACUAUGCACUAAUCUAUCUGAAGAAAAAAACUAUAUCAACUUUGGUAUCUACUUUCCGUUUACUUCAAUC`, “RBNS enrichment (R)” read 0.615.
Under “RBNS enrichment (R)”, `CUGCUGCCCCUCCUUCCUGCUGGUUCAGGUAGCCCCAGCCACGUGGGUUAGAGUCCUGUGCUGGCCUGCCAUGGCAGCUGGCUACCUUCCAGACCAACUGUAGAGAUACC` is recorded as 0.327.
`UUCACAUAUUUUCGACUUGAGAAAUGCUUGUGGUAUGUGUUUUCCAAACUGCCCCCUAUAUGUAAAGUUCAGUUUAACCACUGAUUGCCUUGUUAUUACUAGGUUUUUUG`: “RBNS enrichment (R)” 1.62.
For `CACUGAGGAGCACUCAGCCAGCAGUUCUCUAUCCUUAUCAGCCACAGAAUGCUUCUCACUGCCCGAACCUCUAUGCUCUCAUCUGUCACCAUGGCCUCCAACUCCUUCUG`, “RBNS enrichment (R)” read 0.688.
`GAAGCAUCCAAUGAUUUUUCCCUCCACUGCUGUUAAUUAAUGUCACUUCCAAGAAGAAAAACUGUUCUGUUGUAAAAAAUAUAAUUGCUCUUAAUUCUUGGGGAGGUUAC` — result for “RBNS enrichment (R)”: 0.32.
`CCCCUGCACAUCAGGUCUGAGAGCUAGGAGCUGGGACAGGAGUCGUCUGCAGGAGCUCAGUUGGCUACAGAGGCCUGGUUUUAGAGACCAAGCCCUCCUCUGUGUCCAGU` — result for “RBNS enrichment (R)”: 0.47.
`CACAUGUUGGGAAGUAGAUUCAGAAAGAUAGGAGAAAUACCCAGACUCUACCACUUCCGUGAGCUACUAGUUAGGCAUGGGCAGGAUUAAGUUUUAUGUGUAUUAUCUUC`: “RBNS enrichment (R)” 0.17.
For `UUUCCAAGUUAUAAAGUCUACUGCAGCAUUCAUGUGUAGCGGGGAAGCCUACGUAAGCAAACGACUACAGCUCCUUCCCCCCAGGACUUGCACUUGCACUAGAGCAGCCG`, “RBNS enrichment (R)” read 0.605.
`UGAUCGGCACCAGAAUCCACUGUCAAUAGGCCCGUGGGUGAUCAUUACAAUUGCAAAUCUUUACUUACAGGAGAGGAAACAGAAGAGAUAAAAACUUUUCCAUGCAAAUA` — result for “RBNS enrichment (R)”: 0.297.
For `CUGCCUCCUGUCCUUGUCGCUGUGCCCUGGUUUCCCUCCUCGGGCUUCUCGCCCCUCAGUGGUUUCCUCGGCCCUCCUGGGUUUACUCCUUGAGUUUUCCUGCUGCGAUG`, “RBNS enrichment (R)” read 0.305.
`GUGGCCCCUAGCCAUGUAUCCAUUGGCUGUUUUGGCUUCAGAUUCAACCAAGAUCUGCCUGACUAAAAGAAGCCACCUCAGCGCAGUGGAACGGGGCCCAGGGGGAGGCA` — result for “RBNS enrichment (R)”: 6.41.

Block 6
Target: Interferon regulatory factor 7, full length, phosphomimetic (IRF7, Homo sapiens, UniProt Q92985, residues 1-503, S101K/S471D/S472D/S475D/S476D/S477D/S483D/S484D/S487D)
Method: protein-binding microarray
Form: double-stranded DNA, one strand shown
Matrix: in vitro
Concentration: 250 nM
Setting: 60-bp whole probe
Together with: salmon DNA 0.4 mg/ml
Baseline: random background probes
Direction: higher = stronger binding
Constant ends, left off below: GCCTAGCAC … GTCTTGATTCGCTTGACGCTGCTG
Residues (chain): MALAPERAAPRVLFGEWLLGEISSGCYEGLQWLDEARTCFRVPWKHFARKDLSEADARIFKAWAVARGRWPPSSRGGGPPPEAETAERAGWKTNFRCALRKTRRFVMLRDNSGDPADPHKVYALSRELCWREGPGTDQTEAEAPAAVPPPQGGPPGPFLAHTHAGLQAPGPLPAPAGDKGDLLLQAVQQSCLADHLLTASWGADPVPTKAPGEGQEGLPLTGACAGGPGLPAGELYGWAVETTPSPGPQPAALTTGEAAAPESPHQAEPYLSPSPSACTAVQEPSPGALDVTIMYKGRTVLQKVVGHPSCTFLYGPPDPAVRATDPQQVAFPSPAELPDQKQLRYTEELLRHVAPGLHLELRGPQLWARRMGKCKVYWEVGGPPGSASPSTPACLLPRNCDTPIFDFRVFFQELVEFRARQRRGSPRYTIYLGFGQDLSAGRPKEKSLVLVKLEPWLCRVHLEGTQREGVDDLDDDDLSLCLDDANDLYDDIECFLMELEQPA
The log fluorescence of `GACGAAATCAGTATCGAGACGTGCTAG` is reported as 0.164 z-score.
For `GACGAAATGAGTATCGAGACGTGCTAG`, the log fluorescence was 0.396 z-score.
For `GACGGACTGGGGTATCGCGACGTGCTA`, the log fluorescence was -0.812 z-score.
`TCAATTTTCTGAATGTCACTGTGCTAG` has a log fluorescence of 1.02 z-score.
`GAGGCAAGGAGGGAGAACAGGTGCTAG` has a log fluorescence of -0.989 z-score.
The log fluorescence of `TTAGATATCAGGATCGATTAGTGCTAG` is reported as 0.53 z-score.
The log fluorescence of `TTAGGACTGGGAATGGGTTAGTGCTAG` is reported as 0.0503 z-score.
`GACGATTTCAGTCTCGAGAGGTGCTAG` has a log fluorescence of 0.26 z-score.
`GACGGTTTCGACTATCGAGACGTGCTA` gave a log fluorescence of 5.77 z-score.
`GACGATTTCAGTTCCGAGTCGTGCTAG` has a log fluorescence of 1.23 z-score.
`TTAGATATTGGGACTGGATTAGTGCTA` gave a log fluorescence of -0.0754 z-score.
With `GACGAACTGGGGTATGGAGACGTGCTA` the log fluorescence was -0.661 z-score.
The log fluorescence of `TCACCTTTCCAAATACCACTGTGCTAG` is reported as 1.23 z-score.
`GACGATTTCAGTATCGCGACGTGCTAG` gave a log fluorescence of 0.511 z-score.
With `GACGAACTGAGTTACGAGACGTGCTAG` the log fluorescence was -0.198 z-score.
The log fluorescence of `GCCGGTCTCGGACTGGGGACGTGCTAG` is reported as 0.209 z-score.
For `TTACGTCTCCTTCTCCTTTAGTGCTAG`, the log fluorescence was 0.373 z-score.
The log fluorescence of `TTAGCTATCGGGTTTCGATTAGTGCTA` is reported as 5.36 z-score.
The log fluorescence of `ATTTTAATCACATATACACTGGTGCTA` is reported as 0.797 z-score.
With `GACGGTCTCGTTTTCCTGACGTGCTAG` the log fluorescence was 6.96 z-score.

Excerpt of the above (block 1):
`E32N` has a binding fitness of -1.33 natural log.
`V35Q` has a binding fitness of -1.4 natural log.
`N42I` gave a binding fitness of -1.41 natural log.
`S43Q` has a binding fitness of -1.28 natural log.
The binding fitness of `S47V` is reported as -1.32 natural log.
For `S47L`, the binding fitness was -1.36 natural log.
`A57G` has a binding fitness of -1.34 natural log.
With `I28V` the binding fitness was -1.35 natural log.
For `V56T`, the binding fitness was -1.47 natural log.
`V35K` gave a binding fitness of -1.45 natural log.
The binding fitness of `S43K` is reported as -1.32 natural log.
`R30P` has a binding fitness of -1.4 natural log.
